Published values of several laboratories.
Lines come from different studies, so protocols differ. Numbers after ± are the reported error. No end group written: not given here.
CHRM1: Muscarinic acetylcholine receptor M1 (CHRM1, Homo sapiens, UniProt P11229)
Sequence of UniProt P11229 (whole entry, looked up): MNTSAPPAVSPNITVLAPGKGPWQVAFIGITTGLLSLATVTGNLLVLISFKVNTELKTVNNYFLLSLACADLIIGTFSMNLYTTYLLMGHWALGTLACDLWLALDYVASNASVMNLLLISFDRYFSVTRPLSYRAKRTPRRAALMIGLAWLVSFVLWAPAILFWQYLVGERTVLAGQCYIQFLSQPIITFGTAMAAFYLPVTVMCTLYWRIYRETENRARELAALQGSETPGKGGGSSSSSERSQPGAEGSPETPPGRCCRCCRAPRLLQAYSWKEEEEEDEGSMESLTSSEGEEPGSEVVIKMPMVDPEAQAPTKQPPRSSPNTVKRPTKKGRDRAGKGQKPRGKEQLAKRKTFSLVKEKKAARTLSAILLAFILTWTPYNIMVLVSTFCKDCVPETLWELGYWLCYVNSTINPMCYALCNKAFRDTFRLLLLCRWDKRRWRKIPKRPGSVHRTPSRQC
T1: c-di-GMP riboswitch (Clostridium acetobutylicum); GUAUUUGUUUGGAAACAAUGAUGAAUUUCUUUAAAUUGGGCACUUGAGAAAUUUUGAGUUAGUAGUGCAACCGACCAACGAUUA
B1: side-chain stapled; chain FRTKQEARKSTGG (also: sidechain bridge or staple (positions not given here))
Sequence of UniProt Q8WTS6 (whole entry, looked up): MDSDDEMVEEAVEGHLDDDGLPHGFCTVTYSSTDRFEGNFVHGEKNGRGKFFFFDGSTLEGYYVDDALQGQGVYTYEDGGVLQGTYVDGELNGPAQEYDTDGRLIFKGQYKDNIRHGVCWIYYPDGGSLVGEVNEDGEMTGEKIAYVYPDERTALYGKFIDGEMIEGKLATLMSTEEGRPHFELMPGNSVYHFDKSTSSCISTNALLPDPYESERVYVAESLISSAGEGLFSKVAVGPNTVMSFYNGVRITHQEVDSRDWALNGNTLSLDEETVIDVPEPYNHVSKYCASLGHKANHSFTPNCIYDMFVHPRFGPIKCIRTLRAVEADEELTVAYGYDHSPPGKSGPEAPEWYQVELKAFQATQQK
Sequence of UniProt P08173 (whole entry, looked up): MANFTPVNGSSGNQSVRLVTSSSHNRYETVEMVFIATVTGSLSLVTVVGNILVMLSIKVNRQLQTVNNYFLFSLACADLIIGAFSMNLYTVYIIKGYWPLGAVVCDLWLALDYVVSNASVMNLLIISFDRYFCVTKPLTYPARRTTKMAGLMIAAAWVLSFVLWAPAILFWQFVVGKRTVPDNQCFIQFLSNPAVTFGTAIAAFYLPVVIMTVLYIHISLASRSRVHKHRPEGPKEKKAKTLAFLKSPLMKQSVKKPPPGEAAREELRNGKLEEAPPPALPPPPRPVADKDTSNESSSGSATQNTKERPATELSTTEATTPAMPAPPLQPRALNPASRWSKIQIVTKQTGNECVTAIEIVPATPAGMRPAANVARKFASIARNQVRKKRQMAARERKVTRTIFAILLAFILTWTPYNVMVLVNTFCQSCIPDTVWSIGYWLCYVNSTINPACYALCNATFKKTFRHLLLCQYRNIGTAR
Sequence of UniProt Q21974 (whole entry, unmodified, looked up): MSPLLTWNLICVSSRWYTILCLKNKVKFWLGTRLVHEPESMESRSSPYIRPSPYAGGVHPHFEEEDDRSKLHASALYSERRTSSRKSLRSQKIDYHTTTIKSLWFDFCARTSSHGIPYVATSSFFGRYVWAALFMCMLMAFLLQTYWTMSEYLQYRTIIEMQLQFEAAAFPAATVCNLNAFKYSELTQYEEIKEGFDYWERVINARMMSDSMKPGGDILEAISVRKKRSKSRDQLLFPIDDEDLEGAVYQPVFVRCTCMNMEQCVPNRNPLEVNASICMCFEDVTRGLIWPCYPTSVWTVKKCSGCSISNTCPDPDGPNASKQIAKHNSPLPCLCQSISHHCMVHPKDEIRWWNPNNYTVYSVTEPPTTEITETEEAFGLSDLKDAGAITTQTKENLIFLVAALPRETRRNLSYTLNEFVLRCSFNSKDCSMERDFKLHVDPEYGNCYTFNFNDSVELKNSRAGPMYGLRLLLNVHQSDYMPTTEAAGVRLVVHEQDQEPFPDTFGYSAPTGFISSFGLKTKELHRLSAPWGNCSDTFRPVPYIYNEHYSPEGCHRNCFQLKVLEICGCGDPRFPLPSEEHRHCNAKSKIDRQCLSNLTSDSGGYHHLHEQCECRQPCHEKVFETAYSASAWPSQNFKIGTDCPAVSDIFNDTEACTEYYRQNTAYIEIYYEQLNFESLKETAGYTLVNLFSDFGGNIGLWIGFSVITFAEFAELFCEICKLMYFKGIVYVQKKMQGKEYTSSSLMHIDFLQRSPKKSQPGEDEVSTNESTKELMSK
Sequence of UniProt P00813 (whole entry, looked up): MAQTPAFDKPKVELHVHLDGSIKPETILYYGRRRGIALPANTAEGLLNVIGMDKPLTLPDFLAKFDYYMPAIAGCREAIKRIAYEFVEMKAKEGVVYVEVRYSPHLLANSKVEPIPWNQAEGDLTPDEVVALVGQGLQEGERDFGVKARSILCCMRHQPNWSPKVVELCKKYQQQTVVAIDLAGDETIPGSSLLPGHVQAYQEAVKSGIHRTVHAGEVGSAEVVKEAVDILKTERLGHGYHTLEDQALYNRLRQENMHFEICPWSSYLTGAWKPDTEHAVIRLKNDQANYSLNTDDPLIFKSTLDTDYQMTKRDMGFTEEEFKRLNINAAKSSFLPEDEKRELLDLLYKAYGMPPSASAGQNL
Sequence of UniProt Q9Y5Y9 (whole entry, looked up): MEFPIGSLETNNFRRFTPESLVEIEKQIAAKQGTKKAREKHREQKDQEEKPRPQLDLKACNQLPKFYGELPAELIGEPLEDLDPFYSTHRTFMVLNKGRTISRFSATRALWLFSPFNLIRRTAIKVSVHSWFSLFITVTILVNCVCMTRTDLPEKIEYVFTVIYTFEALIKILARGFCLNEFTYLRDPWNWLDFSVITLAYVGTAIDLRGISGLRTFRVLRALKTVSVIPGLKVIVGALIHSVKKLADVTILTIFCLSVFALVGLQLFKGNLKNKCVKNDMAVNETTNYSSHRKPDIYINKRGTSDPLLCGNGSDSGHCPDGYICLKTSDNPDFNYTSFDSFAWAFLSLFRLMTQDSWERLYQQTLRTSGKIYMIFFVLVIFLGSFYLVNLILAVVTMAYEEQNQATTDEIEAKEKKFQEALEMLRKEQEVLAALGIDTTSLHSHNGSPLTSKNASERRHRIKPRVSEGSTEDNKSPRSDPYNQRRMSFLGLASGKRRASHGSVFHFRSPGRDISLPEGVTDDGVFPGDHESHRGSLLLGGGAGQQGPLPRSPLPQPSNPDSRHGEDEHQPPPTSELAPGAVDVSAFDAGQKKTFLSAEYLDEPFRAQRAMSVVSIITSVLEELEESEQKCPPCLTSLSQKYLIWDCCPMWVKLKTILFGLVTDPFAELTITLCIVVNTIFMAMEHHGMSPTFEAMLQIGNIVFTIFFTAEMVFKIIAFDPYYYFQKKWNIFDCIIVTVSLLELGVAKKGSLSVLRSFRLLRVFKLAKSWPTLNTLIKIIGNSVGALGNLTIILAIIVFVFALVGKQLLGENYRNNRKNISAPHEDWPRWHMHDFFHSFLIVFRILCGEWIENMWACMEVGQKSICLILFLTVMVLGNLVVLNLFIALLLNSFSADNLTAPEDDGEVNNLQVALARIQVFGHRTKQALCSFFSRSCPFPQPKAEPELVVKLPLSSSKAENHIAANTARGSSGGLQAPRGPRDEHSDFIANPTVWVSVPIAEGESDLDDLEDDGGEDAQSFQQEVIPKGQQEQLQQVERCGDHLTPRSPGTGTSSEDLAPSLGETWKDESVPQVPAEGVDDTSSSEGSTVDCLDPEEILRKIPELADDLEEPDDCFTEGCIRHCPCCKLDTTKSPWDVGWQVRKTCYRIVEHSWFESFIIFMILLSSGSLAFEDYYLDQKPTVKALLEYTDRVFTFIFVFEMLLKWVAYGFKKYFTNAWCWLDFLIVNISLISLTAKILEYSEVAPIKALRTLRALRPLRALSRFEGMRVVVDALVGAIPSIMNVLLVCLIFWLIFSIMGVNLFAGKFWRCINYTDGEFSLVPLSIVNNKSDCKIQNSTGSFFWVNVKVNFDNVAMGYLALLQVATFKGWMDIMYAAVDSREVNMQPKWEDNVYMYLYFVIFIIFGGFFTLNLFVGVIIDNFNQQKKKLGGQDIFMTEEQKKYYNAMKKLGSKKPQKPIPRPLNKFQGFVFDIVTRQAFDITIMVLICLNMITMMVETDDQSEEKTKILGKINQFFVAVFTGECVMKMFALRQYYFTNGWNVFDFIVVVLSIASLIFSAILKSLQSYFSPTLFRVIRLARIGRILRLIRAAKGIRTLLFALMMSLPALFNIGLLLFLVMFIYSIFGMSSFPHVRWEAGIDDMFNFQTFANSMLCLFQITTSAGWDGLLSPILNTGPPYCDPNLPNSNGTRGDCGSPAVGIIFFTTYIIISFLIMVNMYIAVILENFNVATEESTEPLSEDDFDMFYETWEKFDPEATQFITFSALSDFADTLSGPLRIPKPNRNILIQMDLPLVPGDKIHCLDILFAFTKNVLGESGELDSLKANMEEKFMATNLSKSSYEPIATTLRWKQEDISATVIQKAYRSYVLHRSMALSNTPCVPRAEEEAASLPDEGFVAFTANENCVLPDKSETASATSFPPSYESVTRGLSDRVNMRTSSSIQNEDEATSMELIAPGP
Sequence of UniProt P30536 (whole entry, looked up): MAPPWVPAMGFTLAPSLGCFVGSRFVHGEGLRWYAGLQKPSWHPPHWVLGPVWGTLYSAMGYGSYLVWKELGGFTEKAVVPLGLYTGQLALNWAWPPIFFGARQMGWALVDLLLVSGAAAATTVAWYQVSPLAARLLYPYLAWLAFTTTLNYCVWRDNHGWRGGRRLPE

Substance | target | test | test system | setting | how to read | measurement | value
Brc1ccc2cc[nH]c2c1 | Dehaloperoxidase B, ferric (Amphitrite ornata, UniProt Q9NAV7) | substrate, HPLC | 5% methanol | 5 min, pH 7, 25 °C, enzyme 10 µM, added: H2O2 500 µM | – | conversion | 34.4%
B1 | Histone-lysine N-methyltransferase SETD7 (SETD7, Homo sapiens, UniProt Q8WTS6) | peptide methylation, substrate, MALDI-TOF MS | – | 10 µM, 3 h, pH 8.0, 37 °C, enzyme 500 nM, added: SAM 30 µM | – | methylation conversion | ≥ 90%
OCCN(CCO)c1nc(N2CCCCC2)c2nc(N(CCO)CCO)nc(N3CCCCC3)c2n1 | Translocator protein (TSPO, Homo sapiens, UniProt P30536) | binding, confocal microscopy | U-87 MG mitochondrial fragments | pH 5.9, added: PIX 1 µM | – | concentration for maximal inhibition | 0.125 µM
CC1(C)c2cc3cc(-c4ccc(O)cc4O)c(=O)oc3cc2OC1CO (centres unmarked) | quinone reductase | inducer | Hepa1c1c7 | – | – | concentration doubling activity | > 20 µM
NC(=NCc1ccccc1)NC(=O)c1nc(Cl)c(N)nc1N | unc-8 (Caenorhabditis elegans, UniProt Q21974, G387E) | ion current, two-electrode voltage clamp | Xenopus oocytes coexpressing MEC-2 | 30 µM, -85 mV | reference: uninjected oocytes, positive = inhibition | current change | 0.87 µA
O=c1cc(-c2ccccc2OCc2ccccc2)ncn1C1CCCCC1O (centres unmarked) | CHRM1 | positive allosteric modulator, IP1 accumulation | CHO-M1 cells | 1 µM, 60 min, 37 °C, added: ACh | reference: ACh alone, higher = stronger potentiation | ΔpEC50 of ACh | 0.75 ± 0.06 log units
Nc1ncnc2c1ncn2[C@@H]1O[C@H](CO)C[C@H]1O | Adenosine deaminase (Homo sapiens, UniProt P00813) | substrate | human erythrocytes | 30 min, 37 °C | – | Vmax | 0.1 nmol/min/mg
CCNC(=O)c1ccc(COc2ccccc2-c2cc(=O)n(C3CCCCC3O)cn2)cc1 (centres unmarked) | CHRM1 | positive allosteric modulator, IP1 accumulation | CHO-M1 cells | 1 µM, 60 min, 37 °C, added: ACh | reference: ACh alone, higher = stronger potentiation | ΔpEC50 of ACh | 1.62 ± 0.46 log units
Nc1nc2c(ncn2[C@@H]2O[C@@H]3COP(=O)(O)O[C@H]4[C@@H](O)[C@H](n5cnc6c(N)ncnc65)O[C@@H]4COP(=O)(O)O[C@H]3[C@H]2O)c(=O)[nH]1 | T1, c-di-GMP riboswitch (Clostridium acetobutylicum) | competitor, competition gel-shift | – | 4-24 h, pH 6.8, 22 °C, added: radiolabelled c-di-GMP | – | Kd | 271 nM
Cn1cc(-c2ccc(COc3ccccc3-c3cc(=O)n(C4CCCCC4O)cn3)c(F)c2)cn1 (centres unmarked) | CHRM1 | allosteric agonist, IP1 accumulation | CHO-M1 cells | 10 µM, unit not given | reference: maximum ACh response | change in baseline activity | 82.9 ± 3.4
CCCN1CCN(C(C)C(=O)Nc2c(C)csc2C(=O)OC)CC1 (centres unmarked) | Sodium channel protein type 10 subunit alpha (SCN10A, Homo sapiens, UniProt Q9Y5Y9) | cell membrane chromatography | – | – | higher = stronger binding | capacity factor k′ | 55
NS(=O)(=O)c1ccc(N2N=C(C(F)(F)F)C[C@@H]2c2ccc(F)cc2F)cc1 | Cyclooxygenase-2 (Canis lupus familiaris, UniProt Q8SPQ9) | PGE2 formation, inhibitor | dog whole blood | 24 h, added: LPS | – | IC80 | > 30 µM
O=c1cc(-c2ccccc2OCc2ccc(-c3nccs3)cc2)ncn1C1CCCCC1O (centres unmarked) | CHRM1 | positive allosteric modulator, IP1 accumulation | CHO-M1 cells | 10 µM, 60 min, 37 °C, added: ACh | reference: ACh alone, higher = stronger potentiation | ΔpEC50 of ACh | 1.62 ± 0.35 log units
COc1ccc(C)c2sc(NS(=O)(=O)c3ccc(F)cc3F)nc12 | Muscarinic acetylcholine receptor M4 (CHRM4, Homo sapiens, UniProt P08173) | calcium mobilization, positive allosteric modulator | CHO expressing hM4 and Gqi5 | concentration not given, added: acetylcholine EC20 | – | activity | inactive

Some of these lines once more:
Substance | target | test | test system | setting | how to read | measurement | value
NC(=NCc1ccccc1)NC(=O)c1nc(Cl)c(N)nc1N | unc-8 (Caenorhabditis elegans, UniProt Q21974, G387E) | ion current, two-electrode voltage clamp | Xenopus oocytes coexpressing MEC-2 | 30 µM, -85 mV | reference: uninjected oocytes, positive = inhibition | current change | 0.87 µA
O=c1cc(-c2ccccc2OCc2ccccc2)ncn1C1CCCCC1O (centres unmarked) | CHRM1 | positive allosteric modulator, IP1 accumulation | CHO-M1 cells | 1 µM, 60 min, 37 °C, added: ACh | reference: ACh alone, higher = stronger potentiation | ΔpEC50 of ACh | 0.75 ± 0.06 log units
